Published values of several laboratories.
Parts stem from different laboratories: compare values within a part only.

Block 1
Target: RNA binding protein fox-1 homolog 2, RRM domain, GST-SBP tag (RBFOX2, Homo sapiens, UniProt O43251-10, residues 100-194)
Technique: RNA Bind-n-Seq
Molecule type: RNA
Matrix: in vitro
Concentration: 365 nM
Notes: natural RNA segment, single round, ends assumed
Reference: no-protein control
Reading: higher = stronger binding
Measurement: RBNS enrichment (R)
Constant ends, left off below: GGGAGUUCUACAGUCCGACGAUC … UGGAAUUCUCGGGUGCCAA
Construct (chain): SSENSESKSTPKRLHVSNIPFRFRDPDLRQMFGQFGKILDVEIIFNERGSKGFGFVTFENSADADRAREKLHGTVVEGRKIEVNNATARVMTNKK
CAGGAGAUGGUUAAUAAGAGUUGUUACUUCGAGGUGCCUACCUCCACCUUCAAAGUAACUCUUAGAAGAUGUGCUUGACUUGAUAGCUUACUUAAAUACACACUGCGAAG: 0.529
GAUGACUAUUUUGUGACUUUCUUAAAAGGUCUGAUUUGUAGACUUCUAAAUAUAACACACAGCACAGAGACGGUUGCCUGUGUUGUCAUUCCUCAAGAGCCUUUGUAUCA: 1.28
GAAGCCUCCAGAGGGACAGCAGGGACGAGCCACACUCAACCCCCCCCCUGCACAUCAGGUCUGAGAGCUAGGAGCUGGGACAGGAGUCGUCUGCAGGAGCUCAGUUGGCU: 0.492
CGGGCAGGACCCCGUCUCCCCAGGUGUCGGAGCCUGACCUGAAUUAAAGUACUGACUGCUCGCCACAUCGUGUGGGUGCAUCCUGCUCCUUGGGGAGCCUUGCUUUCUGC: 0.723
ACAGCUAGAUGUCUUUACAAACCUUAAACCAAAGGAGUAAAAAAAACAAUGGUAAGCACUGAAGUAUAAUAAGUAACCUUUGGUACAGCAGGUUUGCUGCAGUGUUUUUU: 0.431
GGUCAUCUCUCCGUUCACACCCGAGGCUACACCUGAGGCUGAUUUCCUAAGGCUCCCUCCCAGGCAAGUGCCCACCAGCAAGUUCACCACAGAGCCUGAAGCCCACACUC: 0.341
UCACCUCUCUCUGAGGACAGAGCUUGAAGCCUCCACACCAGCUGCUGCUGGAGAUUCAAAGCCCAACUGUGGGUCCGAGAGGGAAGCUGGCUGGGCUGGCUGAAGAAUGA: 1.22
GCUUGGGCCGCUUAGGAACAAGAACCGGAGAGAAGUGAUUGGAAAUGAACUCUUGCCCUGGAAUAAUCUUGACAAUUAAAACUGAUAUGUUUACUUUUUUUGUAUUGAUC: 0.295

Block 2
Target: RING finger protein unkempt homolog, zinc fingers 1-6, GST-SBP tag (UNK, Homo sapiens, UniProt Q9C0B0, residues 30-357)
Technique: RNA Bind-n-Seq
Molecule type: RNA
Matrix: in vitro
Concentration: not given
Notes: RNA with constant flanks, human-mouse chimeric sites, ends assumed
Reference: input RNA pool
Reading: higher = stronger binding
Measurement: bound/input enrichment
Constant ends, left off below: GGGAGUUCUACAGUCCGACGAUC … CAACAGAGGAUUGAGCAUCA
Residues (chain): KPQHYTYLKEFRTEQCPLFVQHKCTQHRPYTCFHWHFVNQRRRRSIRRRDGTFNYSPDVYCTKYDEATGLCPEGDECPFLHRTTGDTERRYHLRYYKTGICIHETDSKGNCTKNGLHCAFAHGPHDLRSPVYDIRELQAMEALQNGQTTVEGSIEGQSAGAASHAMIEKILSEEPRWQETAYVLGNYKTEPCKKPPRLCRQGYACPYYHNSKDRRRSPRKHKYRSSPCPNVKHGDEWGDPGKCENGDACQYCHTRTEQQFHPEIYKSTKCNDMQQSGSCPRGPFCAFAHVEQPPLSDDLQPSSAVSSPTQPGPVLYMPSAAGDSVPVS
AAAUCGUGUGUGUCCAAUAUUGAAAGUGCUUUAUCUACACUCCAGUAUGUAAGCAGCAUAGUAGUUUCUUUAGAGAAUAGGUCAGCCAUUGUGAAGUACAAUGCAAGCUUAGUCACUCCA: 10.4 ratio
AGAGCCCAGGAUGUUGAUGCUACAAAUCCAAAUUACGAAAUUAUGUGUAUGAUCAGAGACUUUAGAGGAAGUUUGGAUUACAGACCCCUAACAACAGCAGAUCCUAUUGAUGAACAUAGG: 0.452 ratio
GUCAACAGCUGCCUCAACCCCAUCCUCUAUGCUUUCUUGGAUGAGAACUUCAAGGCCUGCUUCCGCAAGUUCUGCUGUGCAUCUGCCCUGCGCCGGGACGUGCAGGUUUCUGAUCGUGUG: 0.322 ratio
CUUAAUGUUAAUAUUUUUGAAUAAAUGAAGCUAAAAUUUUGCUUUCUGGUACUACAUGCAUUAAUAAAAGGUUAAGUUUUGUUUUCCACUGAAGUACUAUUUAACAUCUCAGAAAAAAAC: 0.476 ratio
CGCCUGGAUGAGGCGGGUGUCACAGAUGAAGUGCUAGAUUCUGCCAUGCAAGCCUUCCUUCUGGAGGUCAUUGUUAAACAUGGGGAGCCGGCACCUUAUUUAUGUAAUAAAGAUCCUUUU: 0.0836 ratio
GAAUCCUACUCAGGCGGAUUUUGCAACACCAAGCUCAAGUAGCAAUUAUCUUAGUCACAGUUAGGUAGUUUUGGGGCUCUGUGGCCAGGGUUUUAUUCACAUGCAGGUUUGGAAAAUGUA: 2.08 ratio
AUCCCAAUUAUGGACACCGGUGAAAACCCAGAGGUUCCCUUCCCCCGGGACAUGAUUGACUUAGAGGCCAAUUUUGAGAAGAUUGAAAAUGAACUGAAGGAAAUCAACACAAACCAGGAA: 0.264 ratio
GAUCAUGAACCACCAUCAGAAAUGAAGAUGAGAUUACCCAGACGAGCCAAAACAGCUGCGCUACAGAAAAAGUAAACUAACCUUGCAGAGUUCCUUAAUGAAGAUACAAGUUAAGAGAGC: 0.317 ratio

Block 3
Target: Myc proto-oncogene protein, bHLH-zipper, MAX partner unstated (MYC, Homo sapiens, UniProt P01106, residues 368-449)
Sequence of UniProt P01106 (368-449, looked up): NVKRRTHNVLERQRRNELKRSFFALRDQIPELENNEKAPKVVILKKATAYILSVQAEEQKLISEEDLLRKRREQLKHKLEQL
Technique: protein-binding microarray
Molecule type: double-stranded DNA, one strand shown
Matrix: in vitro
Concentration: not given
Notes: k-mer, scored over probes, only values ≥0.25
Reading: higher = stronger binding
Measurement: E-score
ATGAGGTC: 0.335
CGACCACG: 0.418
ATCATGAG: 0.254
CGTTCTCC: 0.265
AACCCACG: 0.391
CCGCATGA: 0.383
CAAACCAC: 0.255
ACCCACGC: 0.411
CGCGCGCG: 0.321
CGCGGTCA: 0.251
CATGCAAC: 0.38
ACACACGT: 0.397
CGCCACGA: 0.356
CCCACGCG: 0.454
CGTGTTAG: 0.373
CACGTTTA: 0.326
ATGCATGG: 0.404
ATGTGCGC: 0.374

Block 4
Target: Sal-like protein 4, full length isoform B (SALL4, Homo sapiens, UniProt Q9UJQ4-2, residues 1-616)
Technique: universal PBM
Molecule type: double-stranded DNA, one strand shown
Matrix: in vitro
Concentration: not given
Notes: 8-mer, flanks averaged, mean of replicates
Reading: higher = stronger binding
Measurement: E-score
GTACTAGA: 0.0954
CCGTCATC: -0.212
CCTAAATC: -0.0508
CATGCCAA: 0.0993
GATTGGAA: -0.0253
TGCGGCAA: -0.0108
AATGAACC: 0.0194
TCAACAGA: 0.0432
TCGAAACA: 0.12
TATTCTGA: 0.133
GGCCCTTA: -0.131
GCCACGCA: -0.286
CCATCGGA: -0.278
CGATATAG: 0.128
ATGCCCCG: -0.264
GAAGTCGC: -0.237
AGTACTAA: 0.227

Excerpt of the above (block 3):
CACGTTTA: 0.326
CGTTCTCC: 0.265
CGTGTTAG: 0.373
ATGTGCGC: 0.374
CGCGGTCA: 0.251
ATGAGGTC: 0.335
ACACACGT: 0.397
